Measurements of several laboratories.
Numbered parts are unrelated; each lists some results of a single study.

Series 1
Target: RNA binding protein fox-1 homolog 2, RRM domain, GST-SBP tag (RBFOX2, Homo sapiens, UniProt O43251-10, residues 100-194)
Method: RNA Bind-n-Seq
Form: RNA
Sample: in vitro
Concentration: 365 nM
Notes: natural RNA segment, single round, ends assumed
Baseline: no-protein control
Direction: higher = stronger binding
Quantity: RBNS enrichment (R)
Shared flanks, not repeated: GGGAGUUCUACAGUCCGACGAUC … UGGAAUUCUCGGGUGCCAA
Residues (chain): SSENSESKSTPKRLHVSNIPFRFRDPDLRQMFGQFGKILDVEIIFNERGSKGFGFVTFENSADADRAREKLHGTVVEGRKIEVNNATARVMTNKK
GGAAAAAGGAUUUCCCUUUAAGGGAGCAAUCUAAGAUAGUCUCUGAAAGGCAGAAAGUUUACAAAUUAGACACUGGGUAUUUUUUAAGAACCUUCAGUGGAAGCAUGUCA: 8.49
CUCGUCAUGUUUUCUGCGGAAAAGAACAGGCAGGAAAGCUGCUCCGAGCAGUUAGAGAAAAGCCGCCUCACACUGUGUUUCACACUCGGGCAGUAAGUAUUGUAACGCCG: 0.354
CCCCUAAAGGCUGAUCCAACUGCUUCUGUGGUUCCACGGUAUUUUUCAUGGUUCAUGUGAAACGUGAUAUCACUGGGCUGCCAAAGCACAAAUGAGUCAGUAUUCUUGGG: 0.327
AAAAAAAAAAAAAACAACAAAAACUUAGAAUUGAGGAGUUGUACCUCCAUUGGCUUCCUCACUCCAAAAUAGGUGCUGAUCCUUCCUAUUCCUAUUCUUUGCCACCUUUU: 1.02
UCAUGUCUCAGUUCCCAUCUAGCAAGGUGGCUUCAGGAGAGCAGAAGGAGGACCAGUCUGAAGAUAAGAAAAGACCCAGCCUGCCUUCCAGCCCGUCUCCUGGCCUCCCA: 0.371
AUUGUCUCUGCCUCCUGAGUGCUGAGAUUAGAGGUUGUGUGCCAUCACCUCUGGGUACUUUUUUAUUUUUUUUUAAAGUUGUGCCUUGUAUGCUGGUAAAUUUUGGAGAG: 0.39
UUAUCCACUGCCUUAAAAUUAUACCUAUUUCAUGUUUAAAAAGAUAUCAAUCAGAAUUGGAGUUUUUAACAGUGGUCAUUAUCAAAGCUGUGUUAUUUUCCACAGAAUAU: 0.384
UCUUAUGGAAACAAUUGGAAAAGUAUAUGGAAAAUGAUUAUUUCAAAGAAUAUUUAUUUAAAGAGGGAAGUGUAGACUUCUUACUGUAAAAUAUGUGAUUCCAGGCUUAA: 0.616

Series 2
Target: Ras GTPase-activating protein-binding protein 1, RRM domain (G3BP1, Homo sapiens, UniProt Q13283)
Chain of UniProt Q13283 (whole entry, looked up): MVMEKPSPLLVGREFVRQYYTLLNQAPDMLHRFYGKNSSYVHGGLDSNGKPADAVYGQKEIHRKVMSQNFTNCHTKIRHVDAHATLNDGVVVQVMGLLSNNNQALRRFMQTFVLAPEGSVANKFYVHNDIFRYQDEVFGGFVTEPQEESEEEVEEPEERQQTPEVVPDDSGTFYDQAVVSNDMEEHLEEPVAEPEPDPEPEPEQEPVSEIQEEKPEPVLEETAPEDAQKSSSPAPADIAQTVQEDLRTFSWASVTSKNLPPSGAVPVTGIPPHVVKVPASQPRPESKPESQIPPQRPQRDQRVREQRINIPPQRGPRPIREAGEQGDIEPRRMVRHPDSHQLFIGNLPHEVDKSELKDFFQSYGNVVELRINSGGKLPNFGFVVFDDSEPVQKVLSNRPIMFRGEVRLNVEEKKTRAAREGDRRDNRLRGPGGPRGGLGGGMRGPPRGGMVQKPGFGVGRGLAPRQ
Method: RNA Bind-n-Seq
Form: RNA
Sample: in vitro
Concentration: 1 µM
Notes: whole 134-nt RNA, ends assumed
Together with: 150 mM KCl
Baseline: input library
Direction: higher = stronger binding
Quantity: log2 enrichment
Shared flanks, not repeated: GGGAGUUCUACAGUCCGACGAUC … UGGAAUUCUCGGGUGUCAAGG
CCUCAAGUCCUGUGCUACACAUCGUAUGUACCGAAUCGGUUUGGUUUGGUGGAAAGUAUUAUGUUACGCCGUUCGGAUCUGCACUUCCAG: -0.313
AAGUCCUGUGCUACACAUCGUAUGUACCGAAUCGGAAAAAAAGGUUUUUGGAAAGGAAAGUAUUAUGUUACGCCGUUCGGAUCUGCACUU: -0.19
UGGGAGGUGGAUUUUGUUUAUUCUUUUAGCUCAUUUCCAGGGGUGGGAAUUUUUUUUUAAUAUGUGUCAUGAAUAAAGUUGUUUUUGAAA: 1.68
UAACUUUAGAGGAGGAUCUGAUGGAUAUGGCACUGGACGUGGAUUUGGGGAUGGCUAUAAUGGGUAUGGAGGAGGACCUGGAGGUGGCAA: -0.543
UAACCUUAGAGGAGGAUCUGAUGGAUAUGGCAGUGGACGUGGAUUUGGGGAUGGCUAUAAUGGGUAUGGAGGAGGACCUGGAGGUGGCAA: -0.613
GUCCUGUGCUACACAUCGUAUGUACCGAAUCGGUUUUUUUGGAAAAAAAGGUUUUUGGAAAGUAUUAUGUUACGCCGUUCGGAUCUGCAC: -0.508
CCUGUGCUACACAUCGUAUGUACCGAAUCGGGGAAAGGGGUUUUUUUGGGGUUUUUGGGGAAAGUAUUAUGUUACGCCGUUCGGAUCUGC: 0.732
GGACACAGCUUGGGCUAUGGCUUUGUGAACUACGUGACCGCGAAGGAUGCAGAGAGAGCGAUCAACACGCUGAACGGCUUGAGGCUCCAG: -0.544
CUGUGCUACACAUCGUAUGUACCGAAUCGGGCCCCCCCGGGCCCCCCCGGGCCCCCCCGGGGAAAGUAUUAUGUUACGCCGUUCGGAUCU: -0.678

Series 3
Target: RING finger protein unkempt homolog, zinc fingers 1-6, GST-SBP tag (UNK, Homo sapiens, UniProt Q9C0B0, residues 30-357)
Method: RNA Bind-n-Seq
Form: RNA
Sample: in vitro
Concentration: not given
Notes: RNA with constant flanks, human and mouse sites, ends assumed
Baseline: input RNA pool
Direction: higher = stronger binding
Quantity: bound/input enrichment
Shared flanks, not repeated: GGGAGUUCUACAGUCCGACGAUC … CAACAGAGGAUUGAGCAUCA
Residues (chain): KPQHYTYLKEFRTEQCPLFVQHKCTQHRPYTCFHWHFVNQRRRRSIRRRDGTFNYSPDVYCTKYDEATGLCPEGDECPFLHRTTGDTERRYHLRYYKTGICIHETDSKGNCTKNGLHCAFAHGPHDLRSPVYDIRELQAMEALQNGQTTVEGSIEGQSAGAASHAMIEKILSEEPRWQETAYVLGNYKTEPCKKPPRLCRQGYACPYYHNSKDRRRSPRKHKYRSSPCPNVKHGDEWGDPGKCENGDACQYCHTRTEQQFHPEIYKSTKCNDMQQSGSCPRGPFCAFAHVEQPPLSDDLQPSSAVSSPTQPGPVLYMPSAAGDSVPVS
AAGAAUGAAUUAAAGAACAAAGAAUUGACAUUGGAACAUAUGGAAACAGAGAGGCUUGAGUUGGCUCAGAAACUUAAUGAAAAUUAUGAGGAAGUGAAAUCUAUAACCAAAGAAAGAAAA: 0.285 ratio
CAGAAUUACCAGGAGUACAAUCUGGCCAACCUCAUCUACUACUCCCUGAAGGAGUCCACCACCAGUGAGCAGAGUGCCAGGAUGACCGCCAUGGACAACGCCAGCAAGAACGCUUCUGAU: 0.0983 ratio
GAGUCAUCUGACUGGAUGAAGACUGUUCCAAGUUACAACCAAACAAAUAGCUCCAUGGACUUUAGAAAUUAUAUGAUGAGAGAUGAGACUCUGGAACCACUGCCCAAAAACUGGGAAAUG: 24.1 ratio
GCGGUCAUUUUUGGGCCCGAAGGGACCCCGUUUGAGGAUGGAACAUUUAAGCUUACAAUUGAAUUCACUGAAGAGUAUCCUAAUAAGCCACCUACUGUUAGAUUUGUCUCUAAGAUGUUC: 0.23 ratio
CACUCCUCGAAGCAGGGUCACCUUUUAGGAAAGGUCCCCCACAGCUACCUCCAGUAGCUUCUUAGUUCGUGGUAGGCUUCAUGAGCCCCUCCCUGCUCUGUGCUGGGAUUUUGACUUCUG: 0.231 ratio
CUCAACCAUCCAAAUGUAAUAAAAUAUUAUGCAUCAUUCAUUGAAGAUAAUGAACUAAACAUAGUUUUGGAACUAGCAGAUGCUGGCGACCUAUCCAGAAUGAUCAAGCAUUUUAAGAAG: 0.18 ratio
GAGACUUCAAAUGCACUAAAGGUUGCUGACUGUGUAGUGGGCAAAGGAUCAAGUGAUGCCGUUUCGCCUGACACGUUCACAGCAGAAGUGAGCUCAGACGCAGUCCCUGAUGUCAGGUCA: 0.151 ratio
AAUCGAGGAGCAACAAGACCCAACGGGCCAAAUACUGGAAAUAAAAUAUGCCAGUUCAAACUGGUCCUUCUAGGAGAGUCUGCUGUUGGCAAAUCAAGCCUGGUUCUUCGCUUUGUGAAA: 0.202 ratio

Series 4
Target: Histone acetyltransferase KAT6A, both winged helices, GST fusion (KAT6A, Homo sapiens, UniProt Q92794, residues 1-181)
Method: protein binding microarray
Form: double-stranded DNA, one strand shown
Sample: in vitro
Concentration: not given
Notes: 8-mer, flanks averaged, mean of 2 arrays, mostly near background
Baseline: not given
Direction: higher = stronger binding
Quantity: E-score
Construct (chain): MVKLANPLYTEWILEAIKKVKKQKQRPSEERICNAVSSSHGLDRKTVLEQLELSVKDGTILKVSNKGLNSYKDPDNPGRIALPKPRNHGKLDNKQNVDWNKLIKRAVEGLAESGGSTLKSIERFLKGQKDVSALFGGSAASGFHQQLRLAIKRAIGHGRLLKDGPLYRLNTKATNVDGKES
TATCTTGA: -0.117
GAGGAACA: -0.0166
ACATAACG: 0.0911
AAACGCAG: 0.134
TGCAAGCA: 0.0178
CGCACGAC: 0.132
CCTCCGTA: 0.103
ATGCCCGC: 0.228
CGCGCCAG: 0.316
GTCCAGGA: -0.15
ACGTTGAG: -0.0509
ATTTCCCA: -0.233
GATTAATA: -0.0394
GGGTGCAC: -0.104
CCGCGCTC: 0.317
GCCGCCGA: 0.309
AGTGTGCC: -0.142
ACATGGTC: -0.0528
ACAGCCTG: -0.113
GTGGTACA: -0.11
ACATATGT: 0.146
CGATCCGA: 0.0597
ACCACGTA: -0.194
AATGGGAG: -0.202

Some of these lines once more (series 4):
ATTTCCCA: -0.233
TGCAAGCA: 0.0178
TATCTTGA: -0.117
GAGGAACA: -0.0166
ACATATGT: 0.146
AGTGTGCC: -0.142
